Experimental data gathered from unrelated publications.
A part holds a random share of what one study measured.

Study 1 — method: protein-binding microarray; molecule type: double-stranded DNA, one strand shown; sample: in vitro; tested at: 0.8 µM; notes: whole 60-bp probe, no competitor; direction: higher = stronger binding; shared flanks, not repeated: … GTCTTGATTCGCTTGACGCTGCTG
Target: Centromere-binding protein 1, full length, N-terminal tag (CBF1, Saccharomyces cerevisiae, UniProt P17106, residues 1-351)
Chain of UniProt P17106 (whole entry, looked up): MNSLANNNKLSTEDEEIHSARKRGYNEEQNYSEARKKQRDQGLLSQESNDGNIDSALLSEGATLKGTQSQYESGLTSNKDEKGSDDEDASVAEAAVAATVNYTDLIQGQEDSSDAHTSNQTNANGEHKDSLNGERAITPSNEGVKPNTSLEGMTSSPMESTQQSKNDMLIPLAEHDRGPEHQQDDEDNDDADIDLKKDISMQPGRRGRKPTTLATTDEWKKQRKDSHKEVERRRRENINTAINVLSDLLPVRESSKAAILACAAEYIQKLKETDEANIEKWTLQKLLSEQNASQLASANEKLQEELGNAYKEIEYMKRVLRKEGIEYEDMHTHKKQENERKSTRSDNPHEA
| Strand | fluorescence intensity [a.u.] |
| --- | --- |
| GAATCTAATTAAAGTAACGTGGGGACTCTTATTTAG | 709 |
| CTAAAAATGCCTCATGACGGTATCTGGGGTCTCTTC | 552 |
| GAAAGATATTACAGACGTGAGGTATCTCTTCCTTAG | 528 |
| GAATCTTTTTGCAAACAAATCACGAGCGACGGTTAG | 1560 |
| CTAAGGAAAGAAAGAAACGTGGGAAAAACAGGGTTC | 507 |
| GAAAAGAAGTCTTTACACGTTGGCCACCGACACTAG | 513 |
| CTAGCCGATACGGCACCCGTGCGATACGAGACATTC | 552 |
| CTAATTTTGTTATTGTACGTGGGGCAGTTGACGTTC | 572 |
| GAAGTACTGCTGTATCTGATGCCGTGAACGAGATAG | 605 |
| GAAAAACATCTGCAGCACGTGCTTGTTATGCTTTAG | 12900 |
| CTATTGCAACCCATGCTGATGTCTGAAGCGCTGTTC | 534 |
| GAATTCAGCTAACGTGATACAACAGGTCACCTTTAG | 1410 |
| GAATTACTGAAGCCTCACGTGAGGGCAATCTGGTAG | 7770 |
| CTAAAGGACGAACCCTAGGTGACCGCATTAGACTTC | 496 |
| TGTACGAAGCTATGTGACTAGTCTATAGTAGTTAGG | 538 |
| GAAATTCGTTTTATCCACGTTTACCCCACAAAATAG | 589 |
| CTAGAGAAGGACAAACATCAGGGACCCATACTTTTC | 517 |
| GAAATTCAGCATTATCACGCCCTTCCACCAACGTAG | 587 |
| CTAAATGCCGCAGATCACGTGGTAAAGAAAAGATTC | 17900 |
| GAAGGATATCCGTCACCCGTGATTCCGTCGGAGTAG | 977 |
| GAATGAAATTTTTTTCTGGTGGTTGTTAGCAAATAG | 545 |
| GAAAATAGTTTGTGTGGTCTGATTATTTACGTATAG | 549 |
| CTATGGTTTTGATGGTAGGTGACCTCACTTTTCTTC | 520 |
| GAAAAACGGGCCTCCCACGTGACGTAAAGTAGGTAG | 12700 |

Study 2 — method: RNAcompete; molecule type: RNA; sample: in vitro; tested at: 20 nM; notes: 7-mer, probes averaged, single round; relative to: mean of 7-mers; direction: higher = stronger binding
Target: PABPC1L2, full length, GST fusion (mouse, UniProt A0ABA7IW68)
Target sequence (chain): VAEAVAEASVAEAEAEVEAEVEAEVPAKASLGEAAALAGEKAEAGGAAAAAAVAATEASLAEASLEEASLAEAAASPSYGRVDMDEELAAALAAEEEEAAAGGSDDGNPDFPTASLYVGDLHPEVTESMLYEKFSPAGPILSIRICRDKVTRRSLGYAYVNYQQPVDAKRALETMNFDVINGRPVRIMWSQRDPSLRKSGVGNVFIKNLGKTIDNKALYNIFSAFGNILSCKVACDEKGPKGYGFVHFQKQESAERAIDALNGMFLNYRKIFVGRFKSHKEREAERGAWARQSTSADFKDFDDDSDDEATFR
| Strand | 7-mer Z-score |
| --- | --- |
| CAGGUCG | -0.106 |
| CCACCGU | -0.333 |
| CUGCCCC | -0.344 |
| CGAUACU | -0.0808 |
| AGUCAGU | -0.302 |
| UUCCCAG | -0.338 |
| CAGCCUG | -0.322 |
| CUGCUUC | -0.354 |
| UAUCAGU | -0.26 |
| UAUCGGU | -0.0754 |
| CCUCAGA | -0.215 |
| CUUAAUA | -0.0681 |
| UCGCCAC | -0.291 |
| CGGAGUU | -0.287 |
| AUCACGG | 0.0515 |
| UAAGCUA | -0.142 |
| GCUACUA | -0.139 |
| GAGCCAU | -0.237 |
| UUAUUUC | -0.306 |
| AUAUUUC | -0.199 |
| AAUCUUA | 0.0968 |

Study 3 — method: protein-binding microarray; molecule type: double-stranded DNA, one strand shown; sample: in vitro; tested at: 250 nM; notes: 60-bp whole probe; with: salmon DNA 0.4 mg/ml; relative to: random background probes; direction: higher = stronger binding; shared flanks, not repeated: GCCTAGCAC … GTCTTGATTCGCTTGACGCTGCTG
Target: Interferon regulatory factor 7, full length, phosphomimetic (IRF7, Homo sapiens, UniProt Q92985, residues 1-503, S101K/S471D/S472D/S475D/S476D/S477D/S483D/S484D/S487D)
Chain of UniProt Q92985 (whole entry, unmodified, looked up): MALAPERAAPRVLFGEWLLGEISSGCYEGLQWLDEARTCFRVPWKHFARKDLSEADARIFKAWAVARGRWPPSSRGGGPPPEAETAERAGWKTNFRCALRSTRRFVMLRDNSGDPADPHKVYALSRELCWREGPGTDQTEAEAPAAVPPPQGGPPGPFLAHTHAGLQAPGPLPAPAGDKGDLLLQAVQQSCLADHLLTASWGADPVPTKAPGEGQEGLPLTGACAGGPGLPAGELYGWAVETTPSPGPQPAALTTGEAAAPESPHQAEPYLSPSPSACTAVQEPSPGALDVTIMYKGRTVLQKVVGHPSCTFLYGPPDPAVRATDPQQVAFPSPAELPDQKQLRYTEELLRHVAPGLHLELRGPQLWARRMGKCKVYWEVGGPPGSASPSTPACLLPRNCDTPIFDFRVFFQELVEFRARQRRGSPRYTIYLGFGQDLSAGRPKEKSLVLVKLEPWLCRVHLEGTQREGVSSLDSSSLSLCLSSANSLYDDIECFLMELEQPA
| Strand | log fluorescence [z-score] |
| --- | --- |
| AGTCTTCTCCTCTAGGTTCTCGTGCTA | 0.222 |
| GACGGTATCGACACTGGAGACGTGCTA | -0.256 |
| TTAGAACTGAGTCTCGATGAGTGCTAG | -0.286 |
| TTAGATTTGAGTTCCGATTAGTGCTAG | 1.57 |
| TTACGTATCGGTATCGGTTAGTGCTAG | 1.82 |
| GACGGTTTCGGTAGCGGGACGTGCTAG | 3.52 |
| CTAGATCTCAGTATCGATTAGTGCTAG | 1.21 |
| CCGTAGCTTCCTTTCGCCGCGTGCTAG | -0.0786 |
| TTAGGGTTCGACTTTCGGTTAGTGCTA | 3.7 |
| GACGGTATCAACTTTCGGGACGTGCTA | 0.0267 |
| GACGACTTCAGTTCCGAGACGTGCTAG | 0.323 |
| TCATTTATGCTTTCTTTAACTGTGCTA | 1.27 |
| TTAGATATCAGTTTCTATTAGTGCTAG | 3.34 |
| AAGTTTTTCATTTTTTTTCAGTGCTAG | 0.854 |
| GACGGTTTCCTTTTACTGACGTGCTAG | 8.79 |
| GACAATTTCGGGTTTCGAGACGTGCTA | 5.05 |
| TCAAATTTTCAATTCCTACTGTGCTAG | 0.462 |
| GACGGTTTCGGACTGGGGTCGTGCTAG | 4.12 |

Study 4 — method: RNA Bind-n-Seq; molecule type: RNA; sample: in vitro; tested at: 365 nM; relative to: no-protein control; direction: higher = stronger binding
Target: RNA binding protein fox-1 homolog 2, RRM domain, GST-SBP tag (RBFOX2, Homo sapiens, UniProt O43251-10, residues 100-194)
Notes: natural RNA segment, single round, ends assumed
Shared flanks, not repeated: GGGAGUUCUACAGUCCGACGAUC … UGGAAUUCUCGGGUGCCAA
Construct (chain): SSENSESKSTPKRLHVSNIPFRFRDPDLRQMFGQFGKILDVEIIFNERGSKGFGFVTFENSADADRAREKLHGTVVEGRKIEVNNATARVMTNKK
| Strand | RBNS enrichment (R) |
| --- | --- |
| GGAAUCAAUCUUCCUAAGCUGAAGAACCUCUACCUGGAGAUCAAAGACGCUGGCCUUCAGACCUGAUCAGACUCCCAGGGGCAGCCACCACAUGUAUGACAGAGAACAGA | 0.736 |
| CUCCAUUUGAGUAUUUUGUAAUUUUUUUGAAAUAUUUGUGGACAUAAAUAAAACCAAGCUACACUACAGCACCCUGUGUGUUGGCCAGUGCACUGUCUCAUUCUGGAGUG | 0.315 |
| UCCUGUACCAGCACCUCCGUUUUCAGUCAGUGUUGUCCAGCAACGGUACCGUUUACACAGUCACCUCAGACACACCAUUUCACCUCCCUUGCCAAGCUGUUAGCCUUAGA | 0.615 |
| AGCCCCUGCUCACAUCACAGCUGUCUGAAGAACAGUGAGGUGGAGUGCCUAGAACUCCCGUGGUGGUCCUGAGCAGAGAGGAGGAUGUCCUCCUGCCUGCCUGAAGGUCU | 0.33 |
| UUUGGUGAUGAAUAUUUUAUACCCGUCUAAGGGAGAAAGCUAAUGUUUUCCACAAGACUGAACAACGUGUAUUUACACGAGGGUAGACGGCAGAUGCCUGACAGAGAGUG | 0.373 |
| GCUGGUAGCCUUUUGGGAAUUGGUUUGGUUUAUUGUAUAUGUACCAUUUUGCUACCAGUUUCAUUGAAUUGAUUUAAAAAUAAAUAAAUAAUAAAAUUAUUUCUGAUGAU | 11.2 |
| CCCUGCCUAGAGGAGCACCAUCUACAGUUGUGCCAUUCCCCAGCCACUGCCUUCAUGCUGCCCCCGCCGGACUGGCAGAGCCAGGGGUCAGCCACCUGCCUUUGAGUCAU | 0.472 |
| ACCCUAGCGGUCUUCAGACAUUAAGUUCACGUCAUCCACUGAAAGGAAGGGUCCUUGCGUUGACAGCGUGUGGCUUUGGAGUCCGUUUAUGGAAGCACUCUACAAUGAAC | 0.355 |
| AAAAAAGUCGAGAAACUUUGUAAAAUAUUGUGUGUGUGAUUCCUUGUAAAAUAUUUUCAAAUGGUUUAUUACAGAAGAUCAGUUAUUAAAUAAUGUUCAUAUUUUCACUU | 1.29 |
| CUACAAAGCACAUGCGCCCAAGUGGGAAUCCAAGGACUUUAGACCUAACAAAGUCUCCGAAACUAGUAGGACUACUACCACAUCUUUAUCCCCUGAGCUGAUCCGCUUCA | 0.283 |
| GUGCUGAGCACCUGGUAUUGAGGUACAGAGGAGGGCUCCGCCUGCAGGCACUGUGGCCGCUGAGCUGCGUGUUCCCAGCUGCCUCUGUUGCGGACAGCCCGCUCCACUCU | 0.437 |
| GAAGCCUCCCUCCCUCCCUCUGCCUCCCUUCCCCAGGACACCAAGAGCGCCCUCUCCUGAGCCCUGGCAGACCGACUGCAGGUAGCAGGAUUGCAGGACCCUCUGCCUGG | 1.19 |

Study 5 — method: universal PBM; molecule type: double-stranded DNA, one strand shown; sample: in vitro; tested at: 600 nM; direction: higher = stronger binding
Target: Sal-like protein 4, full length isoform A (SALL4, Homo sapiens, UniProt Q9UJQ4, residues 1-1053)
Chain of UniProt Q9UJQ4 (whole entry, looked up): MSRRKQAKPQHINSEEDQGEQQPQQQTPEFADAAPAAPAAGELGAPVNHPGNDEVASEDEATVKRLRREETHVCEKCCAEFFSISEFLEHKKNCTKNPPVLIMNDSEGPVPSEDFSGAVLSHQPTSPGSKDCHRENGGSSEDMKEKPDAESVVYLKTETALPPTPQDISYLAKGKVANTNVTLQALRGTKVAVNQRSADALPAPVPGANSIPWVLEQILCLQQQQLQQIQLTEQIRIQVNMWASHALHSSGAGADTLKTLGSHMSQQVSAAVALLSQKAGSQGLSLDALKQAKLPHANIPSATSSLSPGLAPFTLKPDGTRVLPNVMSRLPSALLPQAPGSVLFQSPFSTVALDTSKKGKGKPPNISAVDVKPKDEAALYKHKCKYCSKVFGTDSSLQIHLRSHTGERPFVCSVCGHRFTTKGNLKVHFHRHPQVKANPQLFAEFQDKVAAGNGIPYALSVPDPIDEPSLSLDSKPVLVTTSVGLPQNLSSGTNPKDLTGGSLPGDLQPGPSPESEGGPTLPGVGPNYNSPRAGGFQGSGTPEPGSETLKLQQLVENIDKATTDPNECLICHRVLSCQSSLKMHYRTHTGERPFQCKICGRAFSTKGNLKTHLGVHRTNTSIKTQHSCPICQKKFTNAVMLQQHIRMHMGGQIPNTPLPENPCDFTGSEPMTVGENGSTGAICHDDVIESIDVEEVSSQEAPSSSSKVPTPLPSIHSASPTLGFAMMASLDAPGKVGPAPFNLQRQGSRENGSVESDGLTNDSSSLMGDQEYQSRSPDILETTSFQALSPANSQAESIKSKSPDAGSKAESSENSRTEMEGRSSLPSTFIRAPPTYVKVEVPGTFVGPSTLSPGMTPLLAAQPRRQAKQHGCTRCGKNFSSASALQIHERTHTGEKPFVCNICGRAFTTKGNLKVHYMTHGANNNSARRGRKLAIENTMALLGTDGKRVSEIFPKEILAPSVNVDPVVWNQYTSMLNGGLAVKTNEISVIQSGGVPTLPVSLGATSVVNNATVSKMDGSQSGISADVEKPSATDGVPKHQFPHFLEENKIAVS
Notes: 8-mer, flanks averaged, mean of replicates
| Strand | E-score |
| --- | --- |
| GGACTGGA | -0.0822 |
| CACATCGC | -0.103 |
| GAGACGGA | -0.187 |
| ACCAATCA | 0.0963 |
| CTCATATC | 0.109 |
| ACTATCTA | 0.19 |
| ACGAGCTA | -0.0231 |
| CGGACCAG | -0.338 |
| CCCGATTC | -0.0927 |
| AATGTCCC | -0.0532 |
| GAGCATGC | -0.151 |
| AGGCATCC | -0.122 |
| GCAAATAC | 0.228 |
| AGTGTCTG | -0.0215 |
| GGGGGGAC | -0.351 |
| CACCTCGC | -0.218 |
| CCGGCTCA | -0.1 |
| AGATTCCC | -0.199 |
| GGTAACAC | -0.0256 |
| GGCATGTA | 0.11 |
| GATTCTGA | 0.064 |
| CAGCGAAC | -0.183 |
| CATAGCCG | -0.014 |
| CGTCCTTA | -0.0298 |
| AATCTTGT | 0.165 |

Some of these lines once more (study 2):
| Strand | 7-mer Z-score |
| --- | --- |
| GCUACUA | -0.139 |
| AGUCAGU | -0.302 |
| UUAUUUC | -0.306 |
| UAUCAGU | -0.26 |
| CCUCAGA | -0.215 |
| UUCCCAG | -0.338 |
| CAGCCUG | -0.322 |
| CAGGUCG | -0.106 |
| UCGCCAC | -0.291 |
| CCACCGU | -0.333 |
| CGGAGUU | -0.287 |
| CGAUACU | -0.0808 |
| AUCACGG | 0.0515 |
| AAUCUUA | 0.0968 |
